{"data": "Assay results of several laboratories", "organism": "Plasmodium falciparum", "note": "Lines come from different studies, so protocols differ. ± gives the spread as reported."}
{"Structure (SMILES)": "CC(=O)c1c(O)c(C)c(O)c2c1OC1=CC(=O)C(=C(C)NCCNc3ccnc4cc(Cl)ccc34)C(=O)C12C (stereo not shown)", "assay": "parasite growth, [3H]hypoxanthine incorporation", "test system": "K1", "conditions": "erythrocytic stages", "IC50": "305 nM"}
{"Structure (SMILES)": "O[C@@H](CNCCNC(c1ccccc1)c1ccccc1)c1cc(Cl)cc2c1-c1ccc(Cl)cc1C2", "assay": "parasite growth, SYBR Green", "test system": "W2", "conditions": "48 h, drug-resistant strain, blood stage", "IC50": "2.6 nM"}
{"Structure (SMILES)": "C[C@@H]1C(=O)O[C@@H](C)/C=C/C=C\\[C@@H](C)[C@@H]2C=C[C@@H]3C[C@]4(C)O[C@@H]4[C@@H](C)[C@H]3[C@@H]2C(=O)C(Cl)(Cl)C1=O", "assay": "parasite growth, ELISA", "test system": "DD2", "conditions": "drug-resistant strain, blood stage", "IC50": "309 nM"}
{"Structure (SMILES)": "CN1CCCCC1C(=O)NC(Cc1ccc(-c2ccccc2)cc1)B(O)O (stereo not shown)", "assay": "ex vivo", "test system": "Brazilian field isolates", "conditions": "range limit", "IC50": "7 to 134 nM"}
{"Structure (SMILES)": "CCN(CC)CCCC(C)Nc1ccnc2cc(Cl)ccc12 (stereo not shown)", "assay": "parasite growth", "test system": "Cam WT, artemisinin-sensitive", "conditions": "72 h", "IC50": "28.2 ± 1.7 nM"}
{"Structure (SMILES)": "COc1ccc2cc1Oc1cc3c(cc1OC)CCN(C)C3Cc1ccc(cc1)Oc1c(O)c(OC)cc3c1C(C2)N(C)CC3 (stereo not shown)", "assay": "parasite growth, stage-specific treatment", "conditions": "12 h, early to late schizont stage", "IC50": "1090 ± 500 nM"}
{"Structure (SMILES)": "COCCN(C)CC(=O)NC(Cc1ccc(-c2ccccc2)cc1)B(O)O (stereo not shown)", "assay": "[3H]-hypoxanthine incorporation", "test system": "Dd2, ELQ-300-resistant", "IC50": "116 ± 51 nM"}
{"Structure (SMILES)": "CC1CCC(C(C)(C)C(=O)Nc2ccc(Oc3ccccc3)cc2)CC1 (stereo not shown)", "assay": "parasite growth, SYBR Green", "test system": "FCB", "IC50": "202 nM"}
{"Structure (SMILES)": "CC(=O)c1c(O)c(C)c(O)c2c1OC1=CC(=O)C(=C(C)NCCCCOC3OC4OC5(C)CCC6C(C)CCC(C3C)C46OO5)C(=O)C12C (mixture of isomers)", "assay": "parasite growth, [3H]hypoxanthine incorporation", "test system": "K1", "conditions": "erythrocytic stages", "IC50": "11.7 nM"}
{"Structure (SMILES)": "C[C@H]1[C@H](OC(=O)CCC(=O)OCc2nnn(-c3cc4ccc(O)cc4oc3=O)c2COC(=O)CCC(=O)O[C@@H]2O[C@@H]3O[C@@]4(C)CC[C@H]5[C@H](C)CC[C@@H]([C@H]2C)[C@@]35OO4)O[C@@H]2O[C@@]3(C)CC[C@H]4[C@H](C)CC[C@@H]1[C@@]24OO3", "test system": "3D7, supernatant of treated uninfected erythrocytes", "conditions": "72 h, 500 nM preincubated 0.16 h", "IC50": "3.8 ± 0.7 nM"}
{"Structure (SMILES)": "CCOC(=O)c1ccc2c(c1)C1CC(C)(N2)c2c(C)nc3ccc(C(=O)OCC)cc3c21 (stereo not shown)", "assay": "parasite growth, inhibitor, SYBR Green I", "test system": "Cam3.1 R539T (MRA-1240)", "IC50": "2700 nM"}
{"Structure (SMILES)": "CC(=O)c1c(O)c(C)c(O)c2c1OC1=CC(=O)C(=C(C)NCCCCO)C(=O)C12C (stereo not shown)", "assay": "parasite growth, [3H]hypoxanthine incorporation", "test system": "K1", "conditions": "erythrocytic stages", "IC50": "5610 nM"}
{"Structure (SMILES)": "C[C@H]1[C@@H](OCc2cn(-c3cc4ccc(O)cc4oc3=O)nn2)O[C@@H]2O[C@@]3(C)CC[C@H]4[C@H](C)CC[C@@H]1[C@@]24OO3", "assay": "parasite growth", "test system": "3D7", "conditions": "24 h, blood stage", "IC50": "1 nM"}
{"Structure (SMILES)": "C[OH+][Cu-2]12[O]C(c3cn(-c4ccccc4)nc3-c3ccc(Br)cc3)=N[N+]1=C(C)c1c(cc(C)oc1=O)[O]2 (stereo not shown)", "assay": "SYBR Green I fluorescence", "test system": "3D7", "conditions": "72 h", "IC50": "15400 nM"}
{"Structure (SMILES)": "Cc1cc(N2CCC(C#N)(C3(C)CC3)C2=O)cc(C(=O)NCc2cc(F)cc(-c3cnn(C)c3)c2)n1 (racemic)", "assay": "parasite growth", "test system": "compound-resistant Dd2-B2 bulk 1_Bulk_10e5_C4", "IC50": "78 nM"}
{"Structure (SMILES)": "C[C@H]1[C@@H](OCc2nnn(-c3cc4ccc(O)cc4oc3=O)c2CO[C@H]2O[C@@H]3O[C@@]4(C)CC[C@H]5[C@H](C)CC[C@@H]([C@H]2C)[C@@]35OO4)O[C@@H]2O[C@@]3(C)CC[C@H]4[C@H](C)CC[C@@H]1[C@@]24OO3", "assay": "parasite growth", "test system": "3D7", "conditions": "24 h, blood stage", "IC50": "0.58 nM"}
{"Structure (SMILES)": "C[N+]1=C2C=C(NCCc3c[nH]c4ccccc34)C(=O)c3[nH]cc(c32)CC1", "assay": "parasite growth, SYBR Green", "test system": "3D7", "conditions": "blood stage", "IC50": "9.4 nM"}
{"Structure (SMILES)": "COc1cc2c3cc1Oc1cc(ccc1O)CC1c4c(cc(OC)c(O)c4Oc4ccc(cc4)CC3N(C)CC2)CCN1C (stereo not shown)", "assay": "parasite growth, inhibitor, SYBR Green I", "test system": "Cam3.1 R539T (MRA-1240)", "IC50": "2800 nM"}
{"Structure (SMILES)": "CC1C=CC=CC(C)C2C=CC3CC(C)(O)C(F)C(C)C3C2C(=O)C(Cl)(Cl)C(=O)C(C)C(=O)O1 (stereo not shown)", "assay": "parasite growth, ELISA", "test system": "DD2", "conditions": "drug-resistant strain, blood stage", "IC50": "328 nM"}
{"Structure (SMILES)": "N[C@H]1C[C@@H](C(=O)O)CC1=C(F)F", "assay": "parasite growth, SYBR Green", "test system": "D6", "conditions": "blood stage", "IC50": "> 10 µg/mL"}
{"Structure (SMILES)": "CC1C=CC=CC(C)C2C=CC3CC(C)(O)C(O)C(C)C3C2C(=O)C(Cl)(Cl)C(=O)C(C)C(=O)O1 (stereo not shown)", "assay": "parasite growth, ELISA", "test system": "DD2", "conditions": "drug-resistant strain, blood stage", "IC50": "> 2170 nM"}
{"Structure (SMILES)": "Cc1cc(C(c2ccc(Cl)cc2)c2ccc(Cl)cc2)c2nccc(C)c2c1", "assay": "parasite growth, inhibitor, SYBR Green I", "test system": "Cam3.1 R539T (MRA-1240)", "IC50": "5290 nM"}
{"Structure (SMILES)": "CC1=N[C@H](C)Cc2c(-c3ccc4ccccc4c3)ccc(O)c21", "assay": "parasite growth, SYBR Green", "test system": "W2", "conditions": "drug-resistant strain, blood stage", "IC50": "870 nM"}
{"Structure (SMILES)": "CCCCOC1C(C)C2C(C=CC3C(C)C=CC=CC(C)OC(=O)C(C)C(=O)C(Cl)(Cl)C(=O)C32)CC1(C)O (stereo not shown)", "assay": "parasite growth, ELISA", "test system": "DD2", "conditions": "drug-resistant strain, blood stage", "IC50": "> 11000 nM"}
{"Structure (SMILES)": "CCOC(=O)CCCc1cccc2c(-c3ccc(Oc4ccccc4)cc3)ccnc12", "assay": "parasite growth, inhibitor, SYBR Green I", "test system": "Cam3.1 R539T (MRA-1240)", "IC50": "9260 nM"}
{"Structure (SMILES)": "O=C1C(NCCc2cc(Br)c(O)c(Br)c2)=CC2=NCCc3c[nH]c1c32", "assay": "parasite growth, SYBR Green", "test system": "3D7", "conditions": "blood stage", "IC50": "1080 nM"}
{"Structure (SMILES)": "C[C@@H]1CC[C@H]2[C@@H](C)C(=O)O[C@@H]3O[C@@]4(C)CC[C@@H]1[C@]32OO4", "assay": "parasite growth", "conditions": "72 h, blood stage", "IC50": "5.92 nM"}
{"Structure (SMILES)": "Oc1ccc(-c2ccc(O)c3ccccc23)c2c1C=NCC2", "assay": "parasite growth, SYBR Green", "test system": "W2", "conditions": "drug-resistant strain, blood stage", "IC50": "2130 nM"}
{"Structure (SMILES)": "C[OH+][Cu-2]12[O]C(c3cn(-c4ccccc4)nc3-c3ccc(F)cc3)=N[N+]1=C(C)c1c(cc(C)oc1=O)[O]2 (stereo not shown)", "assay": "parasite growth, SYBR Green I fluorescence", "test system": "3D7", "conditions": "72 h", "IC50": "36300 nM"}
{"Structure (SMILES)": "C[C@H]1[C@H](OC(=O)CCC(=O)OCc2cn(-c3cc4ccc(O)cc4oc3=O)nn2)O[C@@H]2O[C@@]3(C)CC[C@H]4[C@H](C)CC[C@@H]1[C@@]24OO3", "assay": "parasite growth", "test system": "3D7", "conditions": "72 h, blood stage", "IC50": "62.7 nM"}
{"Structure (SMILES)": "COc1c(Br)cc(CCNC2=CC3=NCCc4c[nH]c(c43)C2=O)cc1Br", "assay": "parasite growth, SYBR Green", "test system": "3D7", "conditions": "blood stage", "IC50": "110 nM"}
{"Structure (SMILES)": "O[C@]12C=C(c3nccc4c3[nH]c3ccccc34)[C@@H]3CCN(CCCC/C=C\\CC1)C[C@@]31C[C@@H]3/C=C\\CCCCN3[C@H]12", "test system": "W2, chloroquine-resistant", "conditions": "72 h", "IC50": "0.0258 ± 0.0075 µg/mL"}
{"Structure (SMILES)": "C[OH+][Cu-2]12[O]C(c3cn(-c4ccccc4)nc3-c3ccc(Cl)cc3)=N[N+]1=C(C)c1c(cc(C)oc1=O)[O]2 (stereo not shown)", "assay": "SYBR Green I fluorescence", "test system": "3D7", "conditions": "72 h", "IC50": "15700 nM"}
{"Structure (SMILES)": "Cc1ccc(S(=O)(=O)n2cc3c4c2C(=O)C(N)=CC4=NCC3)cc1", "assay": "parasite growth, SYBR Green", "test system": "3D7", "conditions": "blood stage", "IC50": "845 nM"}
{"Structure (SMILES)": "COCCN(C)C(C)C(=O)NC(Cc1ccc(-c2ccccc2)cc1)B(O)O (stereo not shown)", "test system": "compound-selected recrudescent clone 1E9_D11", "conditions": "72 h", "IC50": "8050 ± 960 nM"}
{"Structure (SMILES)": "COc1ccc2nc3cc(Cl)ccc3c(NCCNC(C)=C3C(=O)C=C4Oc5c(C(C)=O)c(O)c(C)c(O)c5C4(C)C3=O)c2c1 (stereo not shown)", "assay": "parasite growth, 3H-hypoxanthine incorporation", "test system": "K1", "conditions": "asexual erythrocytic stages", "IC50": "0.03 µg/mL"}
{"Structure (SMILES)": "O[Si](CCCN1CCCCC1)(c1ccc(F)cc1)C1CCCCC1 (stereo not shown)", "assay": "parasite growth, SYBR Green", "test system": "HB3", "conditions": "blood stage", "IC50": "7 nM"}
{"note": "A few entries again:"}
{"Structure (SMILES)": "O[Si](CCCN1CCCCC1)(c1ccc(F)cc1)C1CCCCC1 (stereo not shown)", "assay": "parasite growth, SYBR Green", "test system": "HB3", "conditions": "blood stage", "IC50": "7 nM"}
{"Structure (SMILES)": "COCCN(C)CC(=O)NC(Cc1ccc(-c2ccccc2)cc1)B(O)O (stereo not shown)", "assay": "[3H]-hypoxanthine incorporation", "test system": "Dd2, ELQ-300-resistant", "IC50": "116 ± 51 nM"}
{"Structure (SMILES)": "CC1C=CC=CC(C)C2C=CC3CC(C)(O)C(O)C(C)C3C2C(=O)C(Cl)(Cl)C(=O)C(C)C(=O)O1 (stereo not shown)", "assay": "parasite growth, ELISA", "test system": "DD2", "conditions": "drug-resistant strain, blood stage", "IC50": "> 2170 nM"}
{"Structure (SMILES)": "COCCN(C)C(C)C(=O)NC(Cc1ccc(-c2ccccc2)cc1)B(O)O (stereo not shown)", "test system": "compound-selected recrudescent clone 1E9_D11", "conditions": "72 h", "IC50": "8050 ± 960 nM"}
{"Structure (SMILES)": "N[C@H]1C[C@@H](C(=O)O)CC1=C(F)F", "assay": "parasite growth, SYBR Green", "test system": "D6", "conditions": "blood stage", "IC50": "> 10 µg/mL"}
{"Structure (SMILES)": "C[OH+][Cu-2]12[O]C(c3cn(-c4ccccc4)nc3-c3ccc(Cl)cc3)=N[N+]1=C(C)c1c(cc(C)oc1=O)[O]2 (stereo not shown)", "assay": "SYBR Green I fluorescence", "test system": "3D7", "conditions": "72 h", "IC50": "15700 nM"}
